Assay results pooled from the literature.
Every numbered part comes from another study and shows a few of its results, in no order. Several values in a cell are separate wells, animals, samples, runs or records. Changes are numbered by the printed parent chain.
UniProt Q09013, sequence (whole entry, looked up): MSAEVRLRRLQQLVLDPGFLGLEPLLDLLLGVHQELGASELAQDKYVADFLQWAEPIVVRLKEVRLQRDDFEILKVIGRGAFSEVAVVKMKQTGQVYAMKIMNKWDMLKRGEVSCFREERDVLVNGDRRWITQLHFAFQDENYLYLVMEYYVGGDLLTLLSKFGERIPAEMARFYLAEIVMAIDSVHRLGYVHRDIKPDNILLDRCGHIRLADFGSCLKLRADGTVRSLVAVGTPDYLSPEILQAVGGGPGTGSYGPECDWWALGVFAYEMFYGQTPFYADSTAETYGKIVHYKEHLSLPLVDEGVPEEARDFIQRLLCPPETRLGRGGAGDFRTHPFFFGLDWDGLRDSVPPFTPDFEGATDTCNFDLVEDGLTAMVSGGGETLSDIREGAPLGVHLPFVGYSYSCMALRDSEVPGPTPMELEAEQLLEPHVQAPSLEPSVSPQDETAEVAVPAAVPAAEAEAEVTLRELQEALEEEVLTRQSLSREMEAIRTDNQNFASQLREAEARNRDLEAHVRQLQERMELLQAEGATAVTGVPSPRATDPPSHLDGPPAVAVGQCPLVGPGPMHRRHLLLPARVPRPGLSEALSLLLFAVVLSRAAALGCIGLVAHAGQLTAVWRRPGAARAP

Series 1
Target: ABI1, truncated, D143A, DHFR fusion (Arabidopsis thaliana)
Technique: DHFR PCA, deep sequencing
Medium: yeast
Setting: methotrexate growth selection, single substitutions
Together with: (+)-ABA 0.0091 µM
Reference: wild-type fitted maximum
Reading: higher = stronger binding
Endpoint: relative binding score
Starting sequence: PYL1, truncated, DHFR fusion (Arabidopsis thaliana); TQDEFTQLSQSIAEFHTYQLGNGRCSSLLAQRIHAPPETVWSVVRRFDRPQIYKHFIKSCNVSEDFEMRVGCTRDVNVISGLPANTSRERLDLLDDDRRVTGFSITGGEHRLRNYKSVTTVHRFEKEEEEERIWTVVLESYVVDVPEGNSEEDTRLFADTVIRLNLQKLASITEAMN
Substitution = K58L; value = 2.71%
Substitution = V78M; value = 70.8%
Substitution = S87A; value = 4.91%
Substitution = G21Q; value = 26.5%
Substitution = L138T; value = 1.07%
Substitution = I57P; value = -0.57%
Substitution = Q167P; value = 2.01%
Substitution = F157H; value = 1.33%

Series 2
Target: Ras GTPase-activating protein-binding protein 1, C-terminal RGG region (G3BP1, Homo sapiens, UniProt Q13283)
UniProt Q13283, sequence (whole entry, looked up): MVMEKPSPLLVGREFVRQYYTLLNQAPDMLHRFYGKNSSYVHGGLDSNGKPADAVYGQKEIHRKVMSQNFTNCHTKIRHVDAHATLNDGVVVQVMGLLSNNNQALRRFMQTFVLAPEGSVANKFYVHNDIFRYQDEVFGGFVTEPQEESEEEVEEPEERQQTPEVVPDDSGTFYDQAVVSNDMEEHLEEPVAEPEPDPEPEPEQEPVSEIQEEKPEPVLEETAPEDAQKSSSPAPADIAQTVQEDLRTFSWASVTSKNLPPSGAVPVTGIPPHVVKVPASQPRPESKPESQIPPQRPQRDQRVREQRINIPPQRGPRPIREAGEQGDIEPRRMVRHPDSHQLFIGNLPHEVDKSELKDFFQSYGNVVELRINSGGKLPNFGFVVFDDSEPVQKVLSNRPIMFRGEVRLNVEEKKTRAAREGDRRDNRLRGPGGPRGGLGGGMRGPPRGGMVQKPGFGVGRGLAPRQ
Technique: RNA Bind-n-Seq
Molecule type: RNA
Medium: in vitro
Tested at: 1 µM
Setting: whole 134-nt RNA, ends assumed
Together with: 150 mM KCl
Reference: input library
Reading: higher = stronger binding
Endpoint: log2 enrichment
Strand = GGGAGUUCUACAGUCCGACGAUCUCCUCAAGUCCUGUGCUACACAUCGUAUGUACCGAAUCGGGAGGGAGGGAGGAAAGUAUUAUGUUACGCCGUUCGGAUCUGCACUUCCAGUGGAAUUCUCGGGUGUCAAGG; value = 2.56
Strand = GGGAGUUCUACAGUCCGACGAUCUGGCGCCGUUCGACACCAGGCGGAUCCGCUCUGCAGCACGAACCCAUCUCCAGCCGCAGCCGCAGCCGCCGCCCGGGCCGAGGAGCAGCCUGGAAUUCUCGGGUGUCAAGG; value = -0.876
Strand = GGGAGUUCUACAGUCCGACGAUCUCAAGUCCUGUGCUACACAUCGUAUGUACCGAAUCGGAAAAAAAGGUUUGGUGGAAAGUAUUAUGUUACGCCGUUCGGAUCUGCACUUCCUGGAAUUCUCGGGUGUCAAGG; value = -1.34
Strand = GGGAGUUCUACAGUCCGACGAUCACCAUGCAGGUGGGCAUCUUUGGGAAGUGGGGCAAGGGGGGGAUAGGGAAAGGGGUAACACUUUGGGAACAGGUGGUCCCAGGUCGUUUCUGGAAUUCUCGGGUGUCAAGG; value = -1.02
Strand = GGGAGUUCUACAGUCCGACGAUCAAGUCCUGUGCUACACAUCGUAUGUACCGAAUCGGGAAAGGGGAAAGGGGAAAGGGAAAGUAUUAUGUUACGCCGUUCGGAUCUGCACUUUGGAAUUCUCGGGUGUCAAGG; value = 1.13
Strand = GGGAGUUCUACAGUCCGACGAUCCACAGACAACACGCACCCACACAGACACAGAGGGAAGGGGUUGGGAUGGGCACAGGGUGCACAGCAGGGCGGGGUAGGACCCCAGCCCCUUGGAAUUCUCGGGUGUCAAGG; value = -0.816
Strand = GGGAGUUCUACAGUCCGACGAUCGUCAAGUGCUUCUGCUCCUGAUGUGGAUGACCCAGAGGCAUUCCCAGCUCUGGCUUAACUGGAUGCCAUAAGACAACCCUGGUUCCUUUGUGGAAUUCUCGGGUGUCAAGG; value = 0.379
Strand = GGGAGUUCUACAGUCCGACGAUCUAACUUUAGAGGAGGAUCUGAUUGAUAUGGCAGUGGACGUGGAUUUGGGGAUGGCUAUAAUGGGUAUGGAGGAGGACCUGGAGGUGGCAAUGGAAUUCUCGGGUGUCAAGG; value = -1.04

Further values, each from its own experiment
Molecule = DEK (Homo sapiens, UniProt P35659); target or system = ISY1 (Homo sapiens, UniProt Q9ULR0); assay = cross-linking MS; test system = cell fractions; setting = together with: DSSO; endpoint = cross-linked residues; value = K111 to K259
Molecule = NC(=O)c1ccc(N(C(N)=O)c2c(F)cccc2F)nc1-c1ccc(F)cc1F; target or system = Myotonin-protein kinase (DMPK, Homo sapiens, UniProt Q09013); assay = enzyme activity, inhibitor; setting = 0.5 µM; how to read = reference: control; endpoint = remaining activity; value = 104%
Molecule = ANK3 (Homo sapiens, UniProt Q12955); target or system = PIK3R5 (Homo sapiens, UniProt Q8WYR1); assay = cross-linking MS; test system = cell fractions; setting = together with: DMTMM; endpoint = cross-linked residues; value = D2575 to K789
Molecule = Cn1cncc1[C@@](O)(COc1ccc(C#N)cc1-c1ccc(OC(F)(F)F)cc1)c1ccc(C#N)cc1; target or system = HEK293T; assay = high-content imaging; setting = 10 µM, 12 h; endpoint = cells with altered mitochondria; value = 30.5% and 28.1%
Molecule = NDC80 (Homo sapiens, UniProt O14777); target or system = NUF2 (Homo sapiens, UniProt Q9BZD4); assay = cross-linking MS; setting = hits only; endpoint = interaction screen; value = cross-linked
Molecule = Nc1ncnc2c1cnn2-c1ccccc1; target or system = Cyclin-dependent kinase 2, with cyclin A (CDK2, Homo sapiens, UniProt P24941); assay = enzyme activity, inhibitor; setting = 0.5 µM; how to read = reference: control; endpoint = remaining activity; value = 108%

Excerpt of the above (series 1):
Substitution = Q167P; value = 2.01%
Substitution = I57P; value = -0.57%
Substitution = L138T; value = 1.07%
